Measurements pooled from the literature.
A part holds a random share of what one study measured.

Sample 1
SMILES: CC(=O)N[C@@H](Cc1c[nH]c2ccccc12)C(=O)N[C@@H](CCC(=O)C=[N+]=[N-])C(=O)OC(C)C
Method: flow cytometry
Dose: dose not given
Relative to: vehicle
assay	system	relative MFI
refers to: CD127	mice bearing MC38-OVA tumours, tumour-infiltrating CD8+ T cells	1.25
refers to: CD28	mice bearing MC38-OVA tumours, tumour-infiltrating CD8+ T cells	1.42
refers to: BCL6	mice bearing MC38-OVA tumours, tumour-infiltrating CD8+ T cells	1.59
refers to: TCF1	mice bearing MC38-OVA tumours, tumour-infiltrating CD8+ T cells	1.42
refers to: TBET	CD8+ tumour-infiltrating lymphocytes, mouse, MC38-OVA tumour	1.31
refers to: CD62L	mice bearing MC38-OVA tumours, tumour-infiltrating CD8+ T cells	1.93

Sample 2
Target: Serine/threonine-protein kinase 24 (STK24, Homo sapiens, UniProt Q9Y6E0)
UniProt Q9Y6E0, sequence (whole entry, looked up): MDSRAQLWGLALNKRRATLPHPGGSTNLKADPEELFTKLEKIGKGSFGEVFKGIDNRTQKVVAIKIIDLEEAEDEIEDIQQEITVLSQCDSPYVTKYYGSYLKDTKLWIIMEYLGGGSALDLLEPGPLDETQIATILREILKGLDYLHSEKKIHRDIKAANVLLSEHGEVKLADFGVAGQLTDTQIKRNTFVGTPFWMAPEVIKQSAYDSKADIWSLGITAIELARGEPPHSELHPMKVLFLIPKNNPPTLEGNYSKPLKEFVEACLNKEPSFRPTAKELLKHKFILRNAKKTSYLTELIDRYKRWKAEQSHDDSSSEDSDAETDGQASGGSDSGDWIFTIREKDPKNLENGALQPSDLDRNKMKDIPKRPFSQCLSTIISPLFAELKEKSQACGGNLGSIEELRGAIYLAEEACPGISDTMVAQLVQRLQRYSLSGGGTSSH
Effect on: enzyme activity
Mode: inhibitor
Tested at: 0.5 µM
Relative to: control
Structure (SMILES)	remaining activity
COc1cccc(-c2cc(=O)c3ccccc3o2)c1N	108%
O=C1Cc2c([nH]c3ccc(Br)cc23)-c2ccccc2N1	84.8%
CCCCc1c(-c2ccc(OC)cc2)[nH]c2nccnc12	87.3%
CN(C)S(=O)(=O)c1ccc2c(c1)/C(=C/c1cc3c([nH]1)CCCC3)C(=O)N2	47.7%
Cc1cc(Nc2cc(N3CCN(C)CC3)nc(Sc3ccc(NC(=O)C4CC4)cc3)n2)[nH]n1	96.7%
c1ccc2c(-c3ccncc3)c[nH]c2c1	93.5%
Cc1ccc(S(=O)(=O)/C=C/C#N)cc1	89.3%
COc1ccc2c(c1)c(C1=C(c3c[nH]c4ccccc34)C(=O)NC1=O)cn2CCCN(C)C	36.6%
CCCNC(=O)Nc1ccc(Oc2ncnc3cc(OC)c(OC)cc23)cc1Cl	91.7%
O=C1Nc2ccccc2/C1=C\c1c(Cl)[nH]c2ccccc12	81.5%
CN1CCN(c2ccc3nc(-c4c(N)c5c(F)cccc5[nH]c4=O)[nH]c3c2)CC1	44.5%
c1ccc(-c2n[nH]c3c2oc2ccccc23)cc1	75.3%
O=C(c1cc2cc(O)ccc2[nH]1)c1cc2cc(O)ccc2[nH]1	70.4%
O=C1NC(=O)c2c1c1c3ccccc3[nH]c1c1[nH]c3cc(Br)ccc3c21	80.1%
N#Cc1cnc2cnc(NCc3cccnc3)cc2c1Nc1ccc(F)c(Cl)c1	95.6%
O=Nc1c(-c2c(O)[nH]c3cc(Br)ccc23)[nH]c2ccccc12	90.9%
COc1ccc(COc2ccc(Cc3cnc(N)nc3N)cc2OC)cc1	93.5%
O=C1Nc2ccc(Br)cc2/C1=C/c1cc2c([nH]1)CCCC2	94.2%
O=c1cc(N2CCOCC2)oc2c(-c3ccccc3)cccc12	97.1%

Sample 3
Target: Bromodomain-containing protein 4, BD1 (BRD4, Homo sapiens, UniProt O60885)
Tested at: 50 µM
Compound	inhibition [%]
N#CC[C@H](C1CCCC1)n1cc(-c2ncnc3[nH]ccc23)cn1	-1
Cn1cnc2c(F)c(Nc3ccc(Br)cc3F)c(C(=O)NOCCO)cc21	1.65
CCOc1cc2ncc(C#N)c(Nc3ccc(OCc4ccccn4)c(Cl)c3)c2cc1NC(=O)/C=C/CN(C)C	34.4
CCc1cc2c(cc1N1CCC(N3CCOCC3)CC1)C(C)(C)c1[nH]c3cc(C#N)ccc3c1C2=O	1.5
COc1cc2ncnc(Nc3ccc(F)c(Cl)c3)c2cc1NC(=O)/C=C/CN1CCCCC1	52.2
Nc1nccc(-c2c(-c3ccc(F)cc3)ncn2C2CCNCC2)n1	16.8
COCCCOc1ccnc(C[S+]([O-])c2nc3ccccc3[nH]2)c1C (centres unmarked)	52.8
COc1cc2c(Oc3ccc(NC(=O)C4(C(=O)Nc5ccc(F)cc5)CC4)cc3F)ccnc2cc1OCCCN1CCOCC1	47.1
CC(C)NC[C@@H](C(=O)N1CCN(c2ncnc3c2[C@H](C)C[C@H]3O)CC1)c1ccc(Cl)cc1	-3.95
C[C@@H]1CCN(C(=O)CC#N)C[C@@H]1N(C)c1ncnc2[nH]ccc12	-10.4
NC(=O)Nc1cc(-c2cccc(F)c2)sc1C(=O)N[C@H]1CCCNC1	16.6

Sample 4
Target: 5-hydroxytryptamine receptor 1E (HTR1E, Homo sapiens, UniProt P28566)
UniProt P28566, sequence (whole entry, looked up): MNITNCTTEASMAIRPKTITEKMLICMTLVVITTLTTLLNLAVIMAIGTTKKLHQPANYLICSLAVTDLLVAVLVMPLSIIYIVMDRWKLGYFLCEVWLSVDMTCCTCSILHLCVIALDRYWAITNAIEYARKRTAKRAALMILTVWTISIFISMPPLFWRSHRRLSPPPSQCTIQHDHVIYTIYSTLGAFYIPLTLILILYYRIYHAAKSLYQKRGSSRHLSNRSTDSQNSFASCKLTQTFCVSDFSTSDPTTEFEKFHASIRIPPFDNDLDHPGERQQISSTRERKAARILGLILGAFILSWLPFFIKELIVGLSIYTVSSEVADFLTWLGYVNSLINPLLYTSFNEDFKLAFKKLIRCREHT
Effect on: ligand displacement
Method: radioligand
Tested at: 10 µM
Compound	inhibition [%]
C[C@@H]1CN(c2cc(-c3n[nH]c4ccc(OC5(C)CC5)cc34)ncn2)C[C@H](C)O1	-7.52
CN(C)C(=O)Cn1cc(-c2nc([C@@](C)(c3ccc(-c4cnc(N)nc4)cc3)C3CC3)no2)cn1	-14
CC(=O)N1CCC(c2ccc(C(=O)NC3=NCCN3)cc2C(F)(F)F)CC1	-19
CO[C@H]1CC[C@H](CNc2ccc(S(=O)(=O)NC(=O)c3ccc(N4CCN(CC5=C(c6ccc(Cl)cc6)CC(C)(C)CC5)CC4)cc3Oc3cnc4[nH]ccc4c3)cc2[N+](=O)[O-])CC1	-1.62
Cn1nc(C(F)(F)F)cc1-c1cnc(N2CCc3cc(S(=O)(=O)Nc4c(F)cc(Cl)cc4F)cc(N4CCCC4=O)c32)nc1	14.8
CC1=C(C#N)C(c2ccc3c(c2)c(NC(=O)c2ccccc2C)nn3C)C(C#N)=C(C)N1	11.4
CC(C)(O)c1cncc(-c2nc3ccc(F)cc3n2C2CC2)c1	-21.9
CS(=O)(=O)c1cc(C2(NC(=O)c3cncc4c3cnn4-c3ccc(F)cc3)CC2)ccn1	14.8
CCC(=O)N[C@H]1CC[C@@H](C(=O)N(C)c2ccc(-c3nc4ccccc4o3)cc2)C1	-3.14
CS(=O)(=O)NCC[C@H](NC(=O)c1cncc2c1cnn2-c1ccc(F)cc1)c1ccnc(S(C)(=O)=O)c1	8.79
C[C@@H](c1cccc(C#N)c1)n1cc(Cl)cc(C(N)=O)c1=N	-1.72
Cn1cncc1[C@@](O)(COc1ccc(C#N)cc1-c1ccc(OC(F)(F)F)cc1)c1ccc(C#N)cc1	7.11
Cc1nc(C2CCN(C(=O)c3ccc(OC(F)(F)F)cc3N)CC2)c2ncc(N3CCN(C)CC3)cc2n1	-9.94
CN(c1ccnc(CNc2nc(Nc3ccc4c(c3)CC(=O)N4)ncc2C(F)(F)F)n1)S(C)(=O)=O	-26.4
CNC(=O)c1ccc(Nc2ncc(C(F)(F)F)c(NCc3nccnc3N(C)S(C)(=O)=O)n2)cc1	18.2
C[C@H](c1ccc(F)cc1)N(Cc1cccc(C(=O)O)c1)C(=O)c1cnc2ccccc2c1	-18.9
COc1cccc(NC(=O)c2nc3scc(CN(C)Cc4ccccc4)c3c(=O)[nH]2)c1	-0.688
Cc1c(NC(=O)c2cc(C(N)=O)nc3cc(F)ccc23)c(C(F)(F)F)nn1Cc1ccc(C#N)cc1	4
O=C1CCc2cc(Nc3cc(OC4CCOCC4)c([N+](=O)[O-])cc3Cl)ccc2N1	16.5
COc1cc(-c2cn(C3CCc4c(F)cccc4N(CC(F)(F)F)C3=O)nn2)ccc1-n1cnc(C)c1 (centres unmarked)	-8.76
